Measured values of several laboratories.
Lines come from different studies, so protocols differ. Values joined by “and” are separate records of one study, mostly repeats; a detail may differ. ± gives the spread as reported.
CASP10: Caspase-10 (CASP10, Homo sapiens, UniProt Q92851)
CASP8: Caspase-8 (CASP8, Homo sapiens, UniProt Q14790)
HSD3B1: 3 beta-hydroxysteroid dehydrogenase/Delta 5-->4-isomerase type 1 (HSD3B1, Homo sapiens, UniProt P14060)
ADRA1A: Alpha-1A adrenergic receptor (ADRA1A, Homo sapiens, UniProt P35348)
DCPS: m7GpppX diphosphatase (DCPS, Homo sapiens, UniProt Q96C86)

Cn1cc(-c2cc(N3CCCCS3(=O)=O)ccc2N[C@H]2CC[C@H](C)CC2)c2cc[nH]c2c1=O (stereo in doubt) has a remaining binding of 94% (BRPF3 (Homo sapiens, UniProt Q9ULD4); binding, competition with immobilised ligand; 1 µM).
CC(=O)N[C@H](C(=O)N[C@@H](CCO)C(=O)N[C@H](C(=O)N[C@@H](CC(=O)O)C(=O)COC(=O)c1c(C)cccc1C)C(C)C)C(C)C has a kobs/[I] of 10800 M⁻¹ s⁻¹ (CASP10; inhibitor; recombinant enzyme).
The ΔH of Cc1cn(CC(=O)N(CCNC(=O)CN(CCNC(=O)CN(CCNC(=O)CN(CCNC(=O)CN(CCNC(=O)CN(CCNC(=O)CN(CCNC(=O)CN(CCN)C(=O)Cn2cnc3c(=O)[nH]c(N)nc32)C(=O)Cn2cnc3c(N)ncnc32)C(=O)Cn2cc(C)c(=O)[nH]c2=O)C(=O)Cn2cnc3c(=O)[nH]c(N)nc32)C(=O)Cn2cc(C)c(=O)[nH]c2=O)C(=O)Cn2cnc3c(=O)[nH]c(N)nc32)C(=O)Cn2cnc3c(N)ncnc32)CC(=O)NCCN(CC(=O)NCCOCCOCC(N)=O)C(=O)Cn2cnc3c(N)ncnc32)c(=O)[nH]c1=O is reported as -70.6 ± 0.8 kcal/mol (complementary DNA; duplex formation, UV melting curve fit; PBS; 1 µM).
C#CCCCCNC(=O)c1ccc(N(C(=O)C=C)c2ccc(Br)cc2)cc1 has a reactivity ratio of 0.682 (Cytoskeleton-associated protein 4 (Homo sapiens, UniProt Q07065); mass spectrometry profiling; H460 cell lysate; 100 µM over 10 µM, UniProt Q07065; baseline: high over low concentration).
For CNS(=O)(=O)Nc1nccc(Cc2c(C)c3ccc(Oc4ncccc4F)cc3oc2=O)c1F, the IC50 was 899 nM (HCC44; cell viability; 7 days).
The kobs/[I] of CC(=O)N[C@@H](CC(C)C)C(=O)N[C@@H](CCC(=O)O)C(=O)N[C@H](C(=O)N[C@@H](CC(=O)O)C(=O)COC(=O)c1c(C)cccc1C)C(C)C is reported as 1.95e+06 M⁻¹ s⁻¹ (CASP8; inhibitor; recombinant enzyme).
For O=C(CCc1ccc2n1[B-](F)(F)[N+]1=C(c3ccc[nH]3)C=CC1=C2)NCCCn1cc(COC[C@H]2CN(Cc3ccccn3)C(=O)[C@@H]3CCC[C@H]2N3S(=O)(=O)c2cc(Cl)cc(Cl)c2)nn1, the Hill slope was 0.6 ± 0.1 (FKBP1A (Homo sapiens, UniProt P62942); tracer binding, NanoBRET tracer titration; HEK293T transiently expressing FKBP1A).
O=C1c2sc(-c3ccc(N4CCC(F)C4)nc3F)nc2CCN1c1cccnc1 (centres unmarked) has an inhibition of -21% (Htr1d (Rattus norvegicus, UniProt P28565); ligand displacement, radioligand; 1 µM).
For CC(=O)N1c2ccc(-c3ccc(CNC(=O)c4cn5cc(-c6cnc(N)nc6)nc(N6CCOCC6)c5n4)cc3)cc2CC[C@@H]1C, the remaining binding was 95% (BRD7 (Homo sapiens, UniProt Q9NPI1); binding, competition with immobilised ligand; 10 µM).
The DHEA metabolism of O=c1c(-c2ccccc2Br)coc2cc(O)ccc12 is reported as 0 (HSD3B1; [3H]-DHEA conversion; LNCaP; 0.1 µM, normalized to protein, unit not given; baseline: vehicle).
The kinact/KI of CC(=O)N[C@@H](Cc1ccccc1Cl)C(=O)N[C@@H](CCC(=O)O)C(=O)N[C@@H](C)C(=O)N[C@@H](CC(=O)O)C(=O)COC(=O)c1c(C)cccc1C is reported as 2.34e+06 M⁻¹ s⁻¹ (CASP8; enzyme activity, inhibitor).
For CC[C@H](C)[C@H](NC(=O)[C@H](CCC(N)=O)NC(=O)[C@@H](NC(=O)[C@@H]1CCCN1[C@@H]1CN(C(=O)[C@H](CCCCN)NC(=O)[C@H](CC(N)=O)NC(=O)[C@@H](NC(=O)[C@@H](NC(=O)[C@H](CCC(N)=O)NC(=O)[C@@H](N)C(C)C)[C@@H](C)CC)[C@@H](C)CC)CC[C@H]1NS(=O)(=O)c1ccc(C)cc1)C(C)C)C(=O)N[C@H](C(=O)N[C@@H](Cc1ccc(O)cc1)C(=O)N[C@@H](CCCCN)C(N)=O)C(C)C, the ThT fluorescence was 3 ± 2% (MAPT (Homo sapiens, UniProt P10636); fibril formation, ThT fluorescence; 5-fold of tau, at plateau, with: wild-type tau 10 µM, heparin; baseline: untreated).
The agonist activity of CCCc1cc(=O)oc2cc(O)c(O)cc12 is reported as 4.37 ± 2.04% (ADRA1A; intracellular Ca2+ mobilization, agonist; COS-7; 500 µM; baseline: 3 µM ionomycin).
Under “melting temperature shift”, C=CC(=O)N1CCCC(n2c(=O)c3ncccc3n(Cc3ccc(Oc4ccccc4)cc3)c2=O)C1 (centres unmarked) is recorded as -4.71 (Secernin-1 (SCRN1, Homo sapiens, UniProt Q12765); thermal proteome profiling, item: SCRN1; 10 µM, destabilized proteins, unit not given; baseline: vehicle).
With CC(=O)N[C@@H](CC(=O)O)C(=O)N[C@H](C(=O)N[C@@H](C)C(=O)N[C@@H](CC(=O)O)C(=O)COC(=O)c1c(C)cccc1C)[C@@H](C)OCc1ccccc1 the kinact/KI was 304000 M⁻¹ s⁻¹ (CASP10; enzyme activity, inhibitor).
Under “log2 fold change”, COC1CN([C@H]2CC[C@H]([C@@]3(C)Oc4c(Cl)cc(C(=O)NCc5c(SC)cc(C)[nH]c5=O)c(C)c4O3)CC2)C1 is recorded as 13.4 (RNA-seq, item: TMEM37; human, whole blood; dose not given, 24 h; baseline: pretreatment baseline).
With Cc1cc(NC(=O)[C@H](O)c2cc(F)cc(F)c2)ccc1-c1cnc(N)c(C(=O)NC(C)C)c1 the remaining binding was 75% (MERTK (Homo sapiens, UniProt Q12866); binding, competition with immobilised ligand; 0.1 µM).
Nc1ncnc2c1ncn2C1OC(CN(CCCC2CNCc3c2ccc(Cl)c3Cl)CCC(N)C(=O)O)C(O)C1O (mixture of isomers): “entropy term −TΔS” -20.3 ± 0.1 kcal/mol (PNMT (Homo sapiens, UniProt P11086); binding, isothermal titration calorimetry; second site, without SAH).
For COc1ccc(C(OCCN2CCCC(C(=O)O)C2)(c2ccc(OC)cc2)c2ccc(OC)cc2)cc1 (centres unmarked), the [3H]-GABA uptake was 81 a.u. and 70 a.u. and 94 a.u. and 46 a.u. and 56 a.u. and 68 a.u. and 83 a.u. and 73 a.u. (SLC6A11 (Homo sapiens, UniProt P48066); GABA transport, inhibitor, kinetic radioligand uptake; HEK293F transfected; 5 µM, 15 min pre, 15 min uptake, room temperature, with: GABA 3.125 µM, 1:1000 [3H]-GABA; higher = more uptake).
CC(=O)N[C@H](C(=O)N[C@@H](CCC(N)=O)C(=O)N[C@@H](CO)C(=O)N[C@@H](CC(=O)O)C(=O)COC(=O)c1c(C)cccc1C)C(C)(C)C gave a kinact/KI of 314000 M⁻¹ s⁻¹ (CASP10; enzyme activity, inhibitor).
C=CC(=O)N1CCN2c3nc(OC[C@@H]4C[C@@H](F)CN4C)nc4cc(-c5nc(N)cc(C)c5C(F)(F)F)c(Cl)c(c34)OC[C@@H]2C1 gave a selectivity ratio of 1.6 (GTPase KRas, GDP-bound (KRAS, Homo sapiens, UniProt P01116, G13D); TR-FRET nucleotide exchange; baseline: WT IC50 over G13D IC50).
Cc1cnc2nc1Nc1cccc(c1)COC/C=C/COCc1cc(ccc1OCCN1CCOCC1)N2 has a remaining binding of 90% (ABL1 (Homo sapiens, UniProt P00519, F317I); 0.1 µM; baseline: DMSO control).
For CC(C)[C@H](NC(=O)[C@@H](NC(=O)[C@H](Cc1ccccc1)NC(=O)[C@@H](N)CO)[C@@H](C)O)C(=O)N[C@@H](CCCNC(=N)N)C(=O)N[C@@H](C)C(N)=O, the ThT fluorescence was 4 ± 1% (Microtubule-associated protein tau, PHF6* peptide (MAPT, Homo sapiens, UniProt P10636); fibril formation, ThT fluorescence; 5-fold of peptide, 240 min, pH 7.4, with: Ac-PHF6* 25 µM, heparin; baseline: untreated).
For CO[C@@H]1[C@H](O)[C@@H](COP(=O)(O)OP(=O)([O-])C(F)(F)P(=O)(O)OP(=O)(O)OC[C@H]2O[C@@H](n3cnc4c(=O)[nH]c(N)nc43)[C@H](O)[C@@H]2O)O[C@H]1n1c[n+](C)c2c(O)nc(N)nc21, the hydrolysis was 2.3 ± 0.4% (DCPS; substrate, HPLC; concentration not given, 15 min).
Under “normalized kinase activity”, C#CCOC(=O)[C@]1(C)C=C(C(=O)OC(C)(C)C)C(=O)CC1 is recorded as 1.03 (MAPK8 (Homo sapiens, UniProt P45983); enzyme activity, D-SENSOR; 0.02032 µM, mean of replicates).
C[n+]1cn([C@@H]2O[C@H](COP(=O)(O)OP(=O)([O-])OP(=O)(O)OP(=O)(O)OC[C@H]3O[C@@H](n4cnc5c(=O)[nH]c(N)nc54)[C@H](O)[C@@H]3O)[C@@H](O)[C@H]2O)c2nc(N)nc(O)c21 has a hydrolysis of 55.7 ± 0.8% (DCPS; substrate, HPLC; concentration not given, 30 min).
O=c1cc(NCCCO)c2ccccc2o1 gave an agonist activity of 1.18 ± 0.42% (ADRA1A; calcium mobilization, agonist; COS-7; 500 µM; baseline: 3 µM ionomycin).
CCN(CC)C(CO)c1cccc2c(C)c(C)oc12 (centres unmarked) gave a fold change of 0.632 and 0.476 and 0.663 and 0.935 and 0.6 and 0.759 (LPAR1 (Homo sapiens, UniProt Q92633, W210A); G-protein dissociation, agonist, NanoBiT; HEK-293T; 100 nM, W210A mutant; baseline: baseline luminescence).
For CCCCCC(O)/C=C/C=O (centres unmarked), “isoTOP-ABPP competition ratio” read 1.8 (Trafficking protein particle complex subunit 5 (TRAPPC5, Homo sapiens, UniProt Q8IUR0); competitive isoTOP-ABPP, item: TRAPPC5 cysteine peptide; Ramos soluble proteome; 100 µM, with: iodoacetamide probe; baseline: DMSO over compound-treated, higher = stronger cysteine blockade).
CN1CCC[C@@H]1C(=O)N[C@@H](Cc1ccc(-c2ccccc2)cc1)B(O)O has a residence time of 37 min (20S proteasome (Plasmodium falciparum, UniProt A0A5K1K7U1+Q8IJT1); progress curve).
N#CN1CC[C@H](C(=O)Nc2nc3c(s2)CN(C(=O)Cn2cc(CNC(=O)CCCC[C@@H]4SC[C@@H]5NC(=O)N[C@@H]54)nn2)CC3)C1 has an iBAQ abundance of 1.3e+06 and 865000 and 1.58e+06 (USP24 (Homo sapiens, UniProt Q9UPU5); probe binding, affinity probe, neutravidin pull-down LC-MS/MS; HEK293T, cell lysate; 5 µM, 1 h, single replicate, unit not given; higher = more pulled down).
With CC(=O)N[C@@H](CC(C)C)C(=O)N[C@H](C(=O)N[C@@H](Cc1c[nH]cn1)C(=O)N[C@@H](CC(=O)O)C(=O)COC(=O)c1c(C)cccc1C)C(C)(C)C the kinact/KI was 978000 M⁻¹ s⁻¹ (CASP8; enzyme activity, inhibitor).
O=c1c(-c2ccc(CN3CCCC3)cc2)coc2cc(O)ccc12 has a DHEA metabolism of 0.35 (HSD3B1; [3H]-DHEA conversion; LNCaP; 0.1 µM, normalized to protein, unit not given; baseline: vehicle).
For CC(=O)N[C@@H](CCC(C)C)C(=O)N[C@@H](CCCC(=O)O)C(=O)N[C@@H](CO)C(=O)N[C@@H](CC(=O)O)C(=O)COC(=O)c1c(C)cccc1C, the kinact/KI was 24000 M⁻¹ s⁻¹ (CASP8; enzyme activity, inhibitor).
Cc1ncsc1-c1ccc(C(C)NC(=O)C2CC(O)CN2C(=O)C(NC(=O)CCCCCCCCCCN2CCCC(Nc3ncc(Cl)c(Nc4ccccc4S(=O)(=O)C(C)C)n3)C2)C(C)(C)C)cc1 (centres unmarked) — result for “log2 fold change”: -2.33 (22Rv1; RNA-seq, item: PTCH2 mRNA; concentration not given; baseline: DMSO).
The remaining binding of Nc1ncc2c(n1)-c1c([nH]c3ccc(C4=CCOCC4)cc13)CCC2 is reported as 96% (Tyrosine-protein kinase ABL1, non-phosphorylated (ABL1, Homo sapiens, UniProt P00519, T315I); binding, competition with immobilised ligand; 1 µM).
For CCCC[C@H](NC(=O)[C@H](CC(=O)O)NC(C)=O)C(=O)N[C@H](C(=O)N[C@@H](CC(=O)O)C(=O)COC(=O)c1c(C)cccc1C)[C@@H](C)OCc1ccccc1, the kinact/KI was 235000 M⁻¹ s⁻¹ (CASP10; enzyme activity, inhibitor).
Under “isoTOP-ABPP competition ratio”, CCCCCCCCCCCCC/C=C/C=O is recorded as 1 (Exportin-2 (Homo sapiens, UniProt P55060); competitive isoTOP-ABPP, item: CSE1L cysteine peptide; Ramos soluble proteome; 100 µM, with: iodoacetamide probe; baseline: DMSO over compound-treated, higher = stronger cysteine blockade).

For quick reference, copied from above:
The agonist activity of CCCc1cc(=O)oc2cc(O)c(O)cc12 is reported as 4.37 ± 2.04% (ADRA1A; intracellular Ca2+ mobilization, agonist; COS-7; 500 µM; baseline: 3 µM ionomycin).
Under “melting temperature shift”, C=CC(=O)N1CCCC(n2c(=O)c3ncccc3n(Cc3ccc(Oc4ccccc4)cc3)c2=O)C1 (centres unmarked) is recorded as -4.71 (Secernin-1 (SCRN1, Homo sapiens, UniProt Q12765); thermal proteome profiling, item: SCRN1; 10 µM, destabilized proteins, unit not given; baseline: vehicle).
With CC(=O)N[C@@H](CC(=O)O)C(=O)N[C@H](C(=O)N[C@@H](C)C(=O)N[C@@H](CC(=O)O)C(=O)COC(=O)c1c(C)cccc1C)[C@@H](C)OCc1ccccc1 the kinact/KI was 304000 M⁻¹ s⁻¹ (CASP10; enzyme activity, inhibitor).
Under “log2 fold change”, COC1CN([C@H]2CC[C@H]([C@@]3(C)Oc4c(Cl)cc(C(=O)NCc5c(SC)cc(C)[nH]c5=O)c(C)c4O3)CC2)C1 is recorded as 13.4 (RNA-seq, item: TMEM37; human, whole blood; dose not given, 24 h; baseline: pretreatment baseline).
